Measured values collected from several papers.
Each numbered part is a random draw from the data of one study; scales do not carry over between parts. Changes are numbered by the printed parent chain.

Study 1
Target: CCNE2, cyclin fold, Cln2 fusion (human)
Method: yeast growth competition, sequencing
Sample: yeast
Setting: strong parent motif
Reference: not given
Reading: higher = stronger binding
Parent: CDKN1A docking peptide (human); SKACRRLFGPVDS; partner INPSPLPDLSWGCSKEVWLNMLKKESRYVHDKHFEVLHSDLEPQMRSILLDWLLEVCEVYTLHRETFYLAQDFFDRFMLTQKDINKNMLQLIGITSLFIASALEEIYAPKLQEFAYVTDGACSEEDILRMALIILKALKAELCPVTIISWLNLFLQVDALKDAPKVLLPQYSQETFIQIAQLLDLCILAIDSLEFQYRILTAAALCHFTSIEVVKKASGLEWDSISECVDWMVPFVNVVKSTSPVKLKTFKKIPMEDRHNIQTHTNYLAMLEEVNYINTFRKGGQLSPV
Variant | normalised enrichment score
SKACRREFGPVDS [L7E] | -0.188
SAACRRLFGPVDS [K2A] | 3.15
SKACRRLFGGVDS [P10G] | 3.49
SKACVRLFGPVDS [R5V] | 0.304
SIACRRLFGPVDS [K2I] | 2.09
SKACRGLFGPVDS [R6G] | 0.537
SKACRRLFGPVLS [D12L] | 2.42
SKACRRLFGCVDS [P10C] | 2.91
SKAGRRLFGPVDS [C4G] | 0.621
SKACRRLFGPVTS [D12T] | 3.01
SKACRRDFGPVDS [L7D] | 0.272
SKACRRLFFPVDS [G9F] | 4.83
SKACRRLFGTVDS [P10T] | 3.58
SKACRRMFGPVDS [L7M] | 0.482
SKACRKLFGPVDS [R6K] | 3.28
SKACRRLFGPRDS [V11R] | 2.86
SKACRRLFGRVDS [P10R] | 2.42
SYACRRLFGPVDS [K2Y] | 2.9

Study 2
Target: RING finger protein unkempt homolog, zinc fingers 1-6, SBP tag (UNK, Homo sapiens, UniProt Q9C0B0, residues 30-357)
Chain of UniProt Q9C0B0 (30-357, looked up): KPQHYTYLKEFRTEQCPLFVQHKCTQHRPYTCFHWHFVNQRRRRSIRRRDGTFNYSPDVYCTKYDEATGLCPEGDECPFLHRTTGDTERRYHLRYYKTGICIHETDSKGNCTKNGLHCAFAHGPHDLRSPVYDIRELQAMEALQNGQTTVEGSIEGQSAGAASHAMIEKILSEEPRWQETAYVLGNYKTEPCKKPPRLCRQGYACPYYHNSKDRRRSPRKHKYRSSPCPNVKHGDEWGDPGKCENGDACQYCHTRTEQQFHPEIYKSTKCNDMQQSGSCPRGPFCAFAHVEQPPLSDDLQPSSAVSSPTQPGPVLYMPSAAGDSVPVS
Method: RNA Bind-n-Seq
Form: RNA
Sample: in vitro
Concentration: 100 nM
Setting: RNA with constant flanks, vertebrate orthologous sites, ends assumed
Reference: input RNA pool
Reading: higher = stronger binding
Constant ends, left off below: GGGAGUUCUACAGUCCGACGAUC … CAACAGAGGAUUGAGCAUCA
Sequence | bound/input enrichment [ratio]
UCAUAUUGUAAGUAGAGAAAUCUUCAUUGACCCCAUUGUGAAAUUUCCUAGCAAUUUAUUUAGAAUCUUAGCUUUUCUAAUUAAAGCUCACUGUAUUAGUCAAUUUUAUCAUAAUUAAAC | 2.14
GUUAGGUCAUGACCCUUACAGGCUAGGUCAUGAUGCCUACAGGUUAGGACAGGACCCUUACAGAUUAGGCCAUGAUCCCUACAGACUAACUCCUGAUCCUUACAGAAUGUCACCUAGGCC | 0.337
GAAAUGGCCAGUGGAGGAAUCCCUGCCUUGGCCUUGCCUCCCCUCCUUGCCACCUGCCCCUAGGUAUUUUUUUUUUAACCAUCACAUGAUUCCGGUUGGCACUUCCUCCCCCCUGACCUG | 4.14
AGCAGCUCAAGGAUUCAGAACUGGUUUUGCAAAUGUCCCAAGCAGAUAUGGAACAAACGCACGUGGUCAGCCCCGACCGUAAUAAACACCAUUAUUUAUUAUACUUAAGGGUAUUGACUU | 0.316
GUAUUAGCGUCAGCCAGCAUAUUAACCUCUCGUCUGUGCACAGCUUCAAAUGUUUUCAUCUAGUUAGAUUUUUAUUUAAAAGAUUUAAAAAACUGCUUUUCCCAAGACGUUUUUUAAUAA | 1.88
UUUUAUUGAUCAGGUCUGUAAAUGUGUACUAAAAAAAUCAGAGUCUAUUUAUAAACAGAAUAGUUUAUUUAAAGAGGUCUUUCCUCACGAUGUUGUGAUAUGCAUAAUUCCAUUUGUUAC | 0.45
UUAUUUUCAAUCUCUUCUCCCCCUUCCUGAUUUUAAAAGCCCUUCUUUUUUUAGGCAUAUGUAGUAGCAUUAGCAAAGAUGAUUUAAUUUGGGUAACUUUGAUUCUUAAAACAGAAAACA | 0.851
CCGUAAACAGCUCAGGGCAGUACCCUCCCUAUUCUUCAUAUGGCAACCUUAAUCAGGGAUUAGCCAACACAUCAGGGAUGAGUCCCAACUUGAGCCUUACCACCAGCAGUAACAGCAACC | 0.253
UUAGGUUUUUGUGGGGGGUGGGGAAAGGGAGGCUGGUGUCAGCAUUAUGAAGUAUUCCAAAGGUUUUCUCUCUUUUUCUUUCUUUUUUUGUGUUUUGUUUUCCCUUUUAAUUGGAUGUAC | 1.69
UCCAGCCUCAGCUGGCUGUGUCACAGCAUUCCUUACACAGCUAUUUAACAAGUACAAGUGGAGUUAACUUUCAGGAUACAUCUAGGCACUCAGCAUUAUCCUGCAGUCCAGUUGGAGAUG | 0.189
GAGCUAAAGGAGUUAGCAUCUUUAUUUUUAUAUCAAAGAUAAAGGUUAUUUUGAAAUUAUUAGGAUUUUUACACAACUCUGAAAUCUGUUGCUUUUGUAAACAAAUGAUUUGAUUUUAGG | 1.22

Study 3
Target: Histone acetyltransferase KAT6A, both winged helices, GST fusion (KAT6A, Homo sapiens, UniProt Q92794, residues 1-181)
Method: protein binding microarray
Form: double-stranded DNA, one strand shown
Sample: in vitro
Concentration: not given
Setting: 8-mer, flanks averaged, mean of 2 arrays, mostly near background
Reference: not given
Reading: higher = stronger binding
Residues (chain): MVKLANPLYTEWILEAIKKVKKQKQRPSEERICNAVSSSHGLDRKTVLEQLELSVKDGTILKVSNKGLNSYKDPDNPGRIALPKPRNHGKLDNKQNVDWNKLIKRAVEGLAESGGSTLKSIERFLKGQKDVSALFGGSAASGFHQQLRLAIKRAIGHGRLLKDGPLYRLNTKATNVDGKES
Sequence | E-score
TGAAGTAA | -0.159
AATTGAAT | 0.00716
ATCTGGTG | -0.118
TGCTGACA | -0.165
GTGTGACA | -0.0058
GCATCTCC | 0.0193
ACCGCGTA | 0.255
AGAATCTA | -0.0865
AACCAATC | -0.151
GAAAGGGA | 0.00758
AAACGCAC | 0.0471
CTTACTGC | 0.0535
CGTCAATC | 0.143
CGTATGCC | 0.1
CCCCCGCC | 0.0735
CTTAGATC | -0.124
AAATAAAC | -0.00284
ATGTCCCG | 0.219
GGCAAACC | 0.0271
AGCAACTC | -0.128
GAAGGATC | -0.105
ATCCAGGG | -0.172
GCTGGCAA | -0.0848
AGCCGGCA | 0.304
CTGAAGAC | -0.049

Study 4
Target: PABPC1L2, full length, GST fusion (mouse, UniProt A0ABA7IW68)
Method: RNAcompete
Form: RNA
Sample: in vitro
Concentration: 20 nM
Setting: 7-mer, probes averaged, single round
Reference: mean of 7-mers
Reading: higher = stronger binding
Target sequence (chain): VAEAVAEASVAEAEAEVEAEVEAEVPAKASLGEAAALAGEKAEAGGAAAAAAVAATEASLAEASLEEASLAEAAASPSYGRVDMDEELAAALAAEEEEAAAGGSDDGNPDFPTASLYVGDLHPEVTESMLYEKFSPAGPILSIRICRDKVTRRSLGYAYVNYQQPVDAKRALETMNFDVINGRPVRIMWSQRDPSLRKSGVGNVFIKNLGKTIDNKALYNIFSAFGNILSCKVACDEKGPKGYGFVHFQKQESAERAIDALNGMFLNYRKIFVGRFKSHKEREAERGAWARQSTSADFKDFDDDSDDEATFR
Sequence | 7-mer Z-score
ACGAGUA | 0.00979
AUUGGGC | -0.0228
AGAAUGA | -0.164
GUAAUGA | -0.101
UCGUAAA | 0.247
AUCCACC | -0.177
ACAUCAA | 0.106
AGACCUU | -0.311
AUGUAGG | 0.117
UAGCUGU | -0.325
GACCGUA | -0.266
GAUGUUA | -0.215
UUAAACG | 0.0334
UGUGUAC | -0.266
GUCUAGU | -0.351
CCUCCAU | -0.238
UCUGUAA | -0.00289
CUAUGUA | -0.166
UGCAUCC | -0.197
AUAUAAU | -0.00833
CACAAGA | 0.102
ACUGGCG | 0.153
UUAUGAU | -0.0482
UCCUGAG | -0.275

Study 5
Target: Sal-like protein 4, full length isoform A (SALL4, Homo sapiens, UniProt Q9UJQ4, residues 1-1053)
Chain of UniProt Q9UJQ4 (whole entry, looked up): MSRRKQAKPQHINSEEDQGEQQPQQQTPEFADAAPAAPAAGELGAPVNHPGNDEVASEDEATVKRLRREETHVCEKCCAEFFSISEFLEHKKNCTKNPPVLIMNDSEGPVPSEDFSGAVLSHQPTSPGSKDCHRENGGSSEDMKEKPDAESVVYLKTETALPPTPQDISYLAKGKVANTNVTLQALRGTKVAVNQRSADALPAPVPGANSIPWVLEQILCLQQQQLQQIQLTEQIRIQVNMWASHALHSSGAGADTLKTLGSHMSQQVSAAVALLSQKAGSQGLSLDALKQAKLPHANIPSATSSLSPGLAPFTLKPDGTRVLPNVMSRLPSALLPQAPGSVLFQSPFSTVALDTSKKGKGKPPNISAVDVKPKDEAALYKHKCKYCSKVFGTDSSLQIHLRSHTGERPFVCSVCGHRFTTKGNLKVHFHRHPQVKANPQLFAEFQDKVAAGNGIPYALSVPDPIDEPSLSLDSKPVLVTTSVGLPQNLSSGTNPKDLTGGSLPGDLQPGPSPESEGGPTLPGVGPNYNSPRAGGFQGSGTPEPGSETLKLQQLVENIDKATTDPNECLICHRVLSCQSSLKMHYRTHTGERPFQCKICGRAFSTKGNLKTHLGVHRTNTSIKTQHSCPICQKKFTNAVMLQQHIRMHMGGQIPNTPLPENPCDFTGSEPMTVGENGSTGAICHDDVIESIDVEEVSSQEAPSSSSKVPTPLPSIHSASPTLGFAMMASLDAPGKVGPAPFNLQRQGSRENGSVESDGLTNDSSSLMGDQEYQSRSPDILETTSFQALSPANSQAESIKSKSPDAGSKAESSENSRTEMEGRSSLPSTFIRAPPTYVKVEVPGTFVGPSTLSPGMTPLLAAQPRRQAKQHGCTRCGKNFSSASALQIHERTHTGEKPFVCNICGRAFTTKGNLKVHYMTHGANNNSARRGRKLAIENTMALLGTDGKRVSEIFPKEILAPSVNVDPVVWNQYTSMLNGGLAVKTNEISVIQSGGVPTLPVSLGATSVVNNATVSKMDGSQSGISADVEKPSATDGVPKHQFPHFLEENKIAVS
Method: universal PBM
Form: double-stranded DNA, one strand shown
Sample: in vitro
Concentration: 600 nM
Setting: 8-mer, flanks averaged, mean of replicates
Reading: higher = stronger binding
Sequence | E-score
AGGATCTC | -0.112
TAGTTGGA | 0.131
GACGTGCA | 0.0724
TATCTTGA | 0.202
GGCTGCGA | -0.065
ACCGAACG | -0.134
AGCCGCCA | -0.325
CATAGAGG | 0.0384
ACTGCGTG | -0.133
AAAGTATT | 0.325
AATGTGTC | 0.073
TCGACAGA | 0.117
GACTTTGA | 0.131
CCAAGGCC | -0.232
AACCTTAT | 0.147
ACAAACAC | 0.135
GTGCTGCA | -0.0623
GCAAGTGC | -0.195
CGAGCCGC | -0.134
CGTCGTTA | -0.0266
TACAACTA | 0.0976
CAAACGTC | -0.00253
CATTGTCA | 0.131
CACCACGG | -0.318
AGGAAGAC | -0.068

Study 6
Target: ABI1, truncated, D143A, DHFR fusion (Arabidopsis thaliana)
Method: DHFR PCA, deep sequencing
Sample: yeast
Setting: methotrexate growth selection, single substitutions
With: (+)-ABA 200 µM
Reference: wild-type fitted maximum
Reading: higher = stronger binding
Parent: PYL1, truncated, DHFR fusion (Arabidopsis thaliana); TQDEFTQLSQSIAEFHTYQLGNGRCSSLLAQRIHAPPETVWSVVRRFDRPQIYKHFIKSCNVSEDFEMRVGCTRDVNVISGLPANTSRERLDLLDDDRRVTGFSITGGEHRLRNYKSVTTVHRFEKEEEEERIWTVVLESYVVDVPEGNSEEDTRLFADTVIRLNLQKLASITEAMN; partner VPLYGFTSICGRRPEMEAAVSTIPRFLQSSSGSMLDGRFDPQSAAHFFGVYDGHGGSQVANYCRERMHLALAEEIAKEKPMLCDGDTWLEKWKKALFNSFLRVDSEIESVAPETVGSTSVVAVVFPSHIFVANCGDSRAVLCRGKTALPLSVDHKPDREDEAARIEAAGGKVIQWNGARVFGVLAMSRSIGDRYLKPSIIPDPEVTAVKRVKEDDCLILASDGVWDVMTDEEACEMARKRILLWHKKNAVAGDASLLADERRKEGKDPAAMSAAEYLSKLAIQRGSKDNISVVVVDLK
Variant | relative binding score
H110E | 17.2%
E151V | 97.8%
L91A | 7.24%
T73C | 107%
F15E | 59.2%
R163F | 29.1%
K168C | 96.3%
L156S | 95.3%
I33S | 18.5%
L20I | 102%
V70W | 42.1%
K126H | 109%
P37N | 46.5%
V121K | -1.99%
T173M | 86.9%

For quick reference, copied from above (study 3):
Sequence | E-score
GAAGGATC | -0.105
AGCCGGCA | 0.304
GAAAGGGA | 0.00758
AACCAATC | -0.151
TGCTGACA | -0.165
GTGTGACA | -0.0058
AGAATCTA | -0.0865
ATCCAGGG | -0.172
